Measured values of several laboratories.
Compare with care: the assays were run in different laboratories. Numbers after ± are the reported error.
Cell line: PC-3

| Structure (SMILES) | read-out | method | time | setting | added | IC50 [µM] |
| --- | --- | --- | --- | --- | --- | --- |
| C#CC[C@]1(O)C[C@H](C)N2CCc3cc(OCc4cc(C)cc(C)c4)c(OCc4cc(C)cc(C)c4)cc3[C@@H]2C1 | cell growth or viability | MTT |  |  |  | 0.507 |
| Cc1nc(Nc2ccc3c(c2)/C(=C/c2ccccc2)C(=O)N3)c2ccccc2n1 | cell growth or viability | MTT |  |  |  | 23.4 |
| CC(CCC(=O)[O][Pt]([NH2])([NH2])([OH])([Cl])[Cl])C1CCC2C3CCC4CC(O)CCC4(C)C3CCC12C (stereo not shown) | cell growth or viability | MTT |  |  |  | 7.5 |
| CNS(=O)(=O)Nc1nccc(Cc2c(C)c3ccc(Oc4ncccc4F)cc3oc2=O)c1F | cell viability |  | 7 days |  |  | > 1 |
| CNC[C@H](O)c1cccc(OCCOCC#Cc2cccc(Cn3c(-c4ccccc4)c(-c4ccccc4)c4c(=N)n([C@H]5CC[C@H](O)CC5)cnc43)c2)c1 | cell growth or viability | CCK-8 |  |  |  | 2.61 |
| CCc1c(C)c2ccc(OC(C)C)c(C)c2oc1=O | cell growth or viability | MTT |  |  |  | 140 |
| O=[P@]1(c2ccccc2)CC[C@H](O)CC1 | cell growth or viability | MTT | 72 h |  |  | 88.2 |
| OC[C@H]1O[C@@H](Nc2cc3cccnc3c3ncccc23)[C@H](O)[C@@H](O)[C@@H]1O | cell growth or viability | MTT | 48 h | dark |  | 35.1 |
| O=C(O)C(Cc1c[nH]cn1)N1C(=O)c2ccc3c4ccc5c6c(ccc(c7ccc(c2c37)C1=O)c64)C(=O)N(CCN1CCCCC1)C5=O (stereo not shown) | cell growth or viability | SRB | 72 h |  |  | 96.9 |
| O=C1CCP(=O)(c2ccccc2)CC1 | cell growth or viability | MTT | 72 h |  |  | > 100 |
| Cc1nc(N(C)c2ccc3c(c2)/C(=C/c2cn(C)c4ccccc24)C(=O)N3C)c2ccccc2n1 | cell growth or viability | MTT |  |  |  | 31.6 |
| Cc1cc(C)cc(COc2cc3c(cc2OCc2cc(C)cc(C)c2)[C@@H]2C[C@](O)(Cc4cn(Cc5ccc(F)cc5)nn4)C[C@H](C)N2CC3)c1 (single isomer, unassigned) | cell growth or viability | MTT |  |  |  | 0.095 |
| Nc1cc2cccnc2c2ncccc12.[Cl-].[Cl-].[Ru+2].c1cnc2c(c1)ccc1cccnc12.c1cnc2c(c1)ccc1cccnc12 | cell viability | MTT | 1 h preincubation, then 48 h |  | blue light | 58.1 ± 1.07 |
| CN(C)c1ccc(/C=C/c2cc(/C=C3\Sc4ccccc4N3CCCN3CCCC3)c3ccccc3[n+]2C)cc1 | cell growth or viability | MTT | 36 h |  |  | 4.89 |
| COc1ccccc1/C=C1\C(=O)Nc2ccc(Nc3nc(C)nc4ccccc34)cc21 | cell growth or viability | MTT |  |  |  | 1.52 |
| [BH3-][P@+]1(c2ccccc2)CC[C@H](O)CC1 | cell growth or viability | MTT | 72 h |  |  | > 100 |

Some of these lines once more:
| Structure (SMILES) | read-out | method | time | setting | added | IC50 [µM] |
| --- | --- | --- | --- | --- | --- | --- |
| O=C1CCP(=O)(c2ccccc2)CC1 | cell growth or viability | MTT | 72 h |  |  | > 100 |
| Cc1nc(N(C)c2ccc3c(c2)/C(=C/c2cn(C)c4ccccc24)C(=O)N3C)c2ccccc2n1 | cell growth or viability | MTT |  |  |  | 31.6 |
| O=C(O)C(Cc1c[nH]cn1)N1C(=O)c2ccc3c4ccc5c6c(ccc(c7ccc(c2c37)C1=O)c64)C(=O)N(CCN1CCCCC1)C5=O (stereo not shown) | cell growth or viability | SRB | 72 h |  |  | 96.9 |
